{"data": "Measurements gathered from unrelated publications", "note": "Parts stem from different laboratories: compare values within a part only."}
{"data": "Set 1", "target": "Prothrombin, mature alpha-thrombin (F2, Homo sapiens, UniProt P00734)", "method": "aptamer microarray, sandwich", "molecule type": "DNA with 2'F-ANA", "matrix": "in vitro", "tested at": "200 nM", "notes": "whole 15-mer aptamer, many near background", "together with": "Cy3 exosite-II aptamer, 400 nM", "reading": "higher = stronger binding", "oligonucleotide": "GGTTGGTGTGGTTGG"}
{"Modification": "2'F-ANA at 2 3 4 6 9 11 13", "mean fluorescence intensity [a.u.]": 362}
{"Modification": "2'F-ANA at 5 7 8 10 11 15", "mean fluorescence intensity [a.u.]": 47.5}
{"Modification": "2'F-ANA at 2 3 7 8 10 13", "mean fluorescence intensity [a.u.]": 415}
{"Modification": "2'F-ANA at 1 2 5 8 9 10 11 13", "mean fluorescence intensity [a.u.]": 67.2}
{"Modification": "2'F-ANA at 7 13 14", "mean fluorescence intensity [a.u.]": 259}
{"Modification": "2'F-ANA at 1 2 4 6 7 8 11 14 15", "mean fluorescence intensity [a.u.]": 53.7}
{"Modification": "2'F-ANA at 2 3 6 7 8 11 14 15", "mean fluorescence intensity [a.u.]": 355}
{"Modification": "2'F-ANA at 5 6 9 10 13 14", "mean fluorescence intensity [a.u.]": 141}
{"Modification": "2'F-ANA at 3 8 10 12 13 15", "mean fluorescence intensity [a.u.]": 515}
{"Modification": "2'F-ANA at 3 5 6 7 8 13 14 15", "mean fluorescence intensity [a.u.]": 66.4}
{"data": "Set 2", "target": "Histone acetyltransferase KAT6A, both winged helices, GST fusion (KAT6A, Homo sapiens, UniProt Q92794, residues 1-181)", "method": "protein binding microarray", "molecule type": "double-stranded DNA, one strand shown", "matrix": "in vitro", "tested at": "not given", "notes": "8-mer, flanks averaged, mean of 2 arrays, mostly near background", "relative to": "not given", "reading": "higher = stronger binding", "Residues (chain)": "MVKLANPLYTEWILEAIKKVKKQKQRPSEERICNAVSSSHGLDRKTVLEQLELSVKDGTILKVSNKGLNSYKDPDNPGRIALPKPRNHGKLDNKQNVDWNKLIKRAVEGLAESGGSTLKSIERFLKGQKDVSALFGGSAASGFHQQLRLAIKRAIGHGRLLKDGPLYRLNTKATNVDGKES"}
{"Oligonucleotide": "GTACCTAA", "E-score": -0.114}
{"Oligonucleotide": "CTTTAATA", "E-score": 0.00201}
{"Oligonucleotide": "ATGGAGCG", "E-score": 0.133}
{"Oligonucleotide": "GCCGCCAC", "E-score": 0.269}
{"Oligonucleotide": "GAGGTTGC", "E-score": 0.0432}
{"Oligonucleotide": "AGATTCGA", "E-score": -0.115}
{"Oligonucleotide": "AGCACATC", "E-score": -0.0668}
{"Oligonucleotide": "AATGCGAG", "E-score": -0.159}
{"Oligonucleotide": "GCGAAAAA", "E-score": 0.0974}
{"Oligonucleotide": "GGACCTGA", "E-score": -0.00491}
{"data": "Set 3", "target": "RING finger protein unkempt homolog, zinc fingers 1-6, SBP tag (UNK, Homo sapiens, UniProt Q9C0B0, residues 30-357)", "method": "RNA Bind-n-Seq", "molecule type": "RNA", "matrix": "in vitro", "tested at": "100 nM", "notes": "RNA with constant flanks, vertebrate orthologous sites, ends assumed", "relative to": "input RNA pool", "reading": "higher = stronger binding", "all sequences stand within": "GGGAGUUCUACAGUCCGACGAUC … CAACAGAGGAUUGAGCAUCA", "sequence of UniProt Q9C0B0 (30-357, looked up)": "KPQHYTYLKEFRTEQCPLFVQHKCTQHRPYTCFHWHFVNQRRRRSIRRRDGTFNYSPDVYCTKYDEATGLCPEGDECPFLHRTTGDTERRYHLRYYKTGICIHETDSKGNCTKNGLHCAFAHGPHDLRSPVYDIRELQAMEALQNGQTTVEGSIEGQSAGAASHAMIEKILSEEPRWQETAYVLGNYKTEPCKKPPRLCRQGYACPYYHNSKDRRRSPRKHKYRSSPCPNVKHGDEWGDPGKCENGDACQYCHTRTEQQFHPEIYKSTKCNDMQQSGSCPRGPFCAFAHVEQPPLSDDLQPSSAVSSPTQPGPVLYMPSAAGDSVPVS"}
{"Oligonucleotide": "UGUGUUGGUGCAGAGUGCUCUGUGCCAGUGCUCAUCAUCCCUUCUUCACACCACUGUCCCUAGUUAUAGGAAUUUAAUAUUUUUAAAAGUUUUACAUUGCUGUAUAUUCAAAGAUUUGUU", "bound/input enrichment": "0.962 ratio"}
{"Oligonucleotide": "GUAUGUGUGUGCAUUAUUCACAUUCCUGUCUGUUCUGUUGAAGGGGGAAAAAGAGACAUUUUGACCUUUUUUAAGGUUAUUGACUUAAUUUUAUGUUAUUUGGUUGCAUGAAAUUGCCCU", "bound/input enrichment": "0.607 ratio"}
{"Oligonucleotide": "AGCAUCUGGAGACAUUUGGCCUUGUCUUUCAACAUAUGAUAAUAGUCCAGCAUCAUUCCAAAGCCCUUCUUCUAUUGCUAUGCAACCUAGUCCGAGUGCAUCUUGUUCAGAUGCUCACAU", "bound/input enrichment": "1.05 ratio"}
{"Oligonucleotide": "AUUAAAUGCAUAUCAAAUGCUGGAUAUCCCAUUAAACCAUUAUUUAGGUAGACGUUUGUUAUAAUUAAGCUUACAAAUAGGUUUCCUUAAACCAGAAGUGCACUGCCCUUGUCUGAAGUU", "bound/input enrichment": "0.969 ratio"}
{"Oligonucleotide": "GCAAUGAAAAAGCAGCCCUUCUCCCAGCCCCCUUUUCACUAGGAGAUACAAACGUUACGAUAGAAGAGCAAUUAAACUCAAUAAAUUUAUCUUUUCAGGAUGAUCCAGACUCCUGUACCA", "bound/input enrichment": "1.36 ratio"}
{"Oligonucleotide": "GUGUAUGUGUGGGUUUGGGGUGGGGGGAGGGGGCAAGACAGAUGGAAUCUCUAGGGUGUAUGAUGGGUAGUAGGAAGCACAGUGCUAAGUGGGCCUCUAUGUUAAACACCUCUGGAGGUG", "bound/input enrichment": "0.392 ratio"}
{"Oligonucleotide": "AGAUUUGGACCUAGGAGCCAAACCAGGGAGCUAGCAGAAGUAAAGCAGAGUGUAAAAGUAUAGCCAUAUGCAGCUGCCCAGCAACGGUACUACCACUAGCAGCUGUGUUAAAGUAUUUAU", "bound/input enrichment": "0.65 ratio"}
{"Oligonucleotide": "GUGUUUUGUACAGGGCAUUCUCUGUACUAGUUUGUCGUGGUUAUAAAACAAUUAGCAGAAUAGCCUACAUUUGUAUUUAUUUUCUAUUCCAUACUUCUGCCCACGUUGUUUUCUCUCAAA", "bound/input enrichment": "1.22 ratio"}
{"Oligonucleotide": "CUGAAGCUUUGUGUUUGGCUGCACCUGCAUAAGCUGCUACAAAUAGAAUAAAGAAUUUCAUAGCCUGUGUCUAUCAUUUAGAUGCAUGGAAAAAUGGGCUUUGCACACAAUGGGUUUGGA", "bound/input enrichment": "2.56 ratio"}
{"Oligonucleotide": "AAAGCCAUCUUUUCCACAUUUUCUGUAAAUAAUGGAUAAUCAUUUAAAAAAUUUUAUUUUUAGUGCUGUUUUAACAAUGUAGAUAGAUCAUAAAUGUACUUGCUGAAUUCAAUCAUUUUU", "bound/input enrichment": "0.603 ratio"}
{"Oligonucleotide": "UUGACUUCGGACGUCCGCCCUUCCUCGGCGCGAAGGCUGUUCAGUCCCGGGGUUUGCAAGUUUGUCGUUCUCUCCGGGACUCGAGGCUCCUGCCGCAGCCAUGAUCCGCCAGAUCAUCGG", "bound/input enrichment": "0.0898 ratio"}
{"data": "Further values, each from its own experiment"}
{"Molecule": "PhoQ, residues 284 288 289 292 302 303 NLMGRA", "target": "PhoP, residues 12 14 15 18 19 NHFRA (Escherichia coli, UniProt P23836)", "assay": "Sort-seq, item: YFP reporter", "system": "E. coli", "setting": "PhoQ-PhoP variant library, together with: 10 µM Mg2+", "how to read": "relative to: high Mg2+ state, higher = stronger signaling", "endpoint": "fold induction", "value": 3.42}
{"note": "For quick reference, copied from above (set 3):"}
{"Oligonucleotide": "AAAGCCAUCUUUUCCACAUUUUCUGUAAAUAAUGGAUAAUCAUUUAAAAAAUUUUAUUUUUAGUGCUGUUUUAACAAUGUAGAUAGAUCAUAAAUGUACUUGCUGAAUUCAAUCAUUUUU", "bound/input enrichment": "0.603 ratio"}
{"Oligonucleotide": "UUGACUUCGGACGUCCGCCCUUCCUCGGCGCGAAGGCUGUUCAGUCCCGGGGUUUGCAAGUUUGUCGUUCUCUCCGGGACUCGAGGCUCCUGCCGCAGCCAUGAUCCGCCAGAUCAUCGG", "bound/input enrichment": "0.0898 ratio"}
